Assay results pooled from the literature.
Each line is one published result; not all experiments were run side by side. “And” joins repeats or separate records; there may be more than shown. ± gives the spread as reported.

COC1CN([C@H]2CC[C@H]([C@@]3(C)Oc4c(Cl)cc(C(=O)NCc5c(SC)cc(C)[nH]c5=O)c(C)c4O3)CC2)C1: “log2 fold change” 1.42 (RNA-seq, item: GABARAPL1; human, whole blood; dose not given, 24 h; relative to: pretreatment baseline).
For O=C(NS(=O)(=O)c1cccs1)c1cc2ccccc2n1Cc1ccc(Br)c2ccccc12, the serum creatinine was 32.4 µM and 43.8 µM and 32.6 µM and 30.2 µM and 38 µM and 35.8 µM (mouse, chronic hyperuricaemia model, serum; dose not given).
For CCCCNC(CCCC)CSS(=O)(=O)O (stereo not shown), “liver weight decrease” read 17% (Swiss Webster mice, Schistosoma mansoni infected; 100 mg/kg; relative to: vehicle control).
CC[C@H](C)[C@H](NC(=O)[C@@H](NC(=O)c1ccnc(Cl)c1Cl)C(C)(C)C)C(=O)N[C@H](C(=O)N[C@H](C(=O)N[C@H](C(=O)N[C@@H](CCC(N)=O)C(=O)N[C@@H](Cc1c[nH]cn1)C(=O)N[C@H](CC(C)C)C(=O)N[C@@H](CO)C(=O)NCCOCCOCC(=O)N[C@@H](CCCCNC(=O)CC[C@@H]1NC(=O)[C@@H](CCCNC(=N)N)NC(=O)[C@H](CCCNC(=N)N)NC(=O)[C@@H](CCCNC(=N)N)NC(=O)[C@H](CCCNC(=N)N)NC(=O)[C@H](Cc2ccc3ccccc3c2)NC(=O)[C@@H](Cc2ccccc2)NC1=O)C(N)=O)[C@@H](C)O)[C@@H](C)CC)C(C)(C)O: “serum TNF-alpha and IL-6 levels” “decreased” (mouse, acute lung injury, LPS-induced; intravenous, 5 mg/kg, 16 h, with: LPS 10 mg/kg i.p.; relative to: vehicle).
CN1CCC[C@]1(C)/C=C/S(=O)(=O)NC(=O)Nc1c2c(cc3c1CCC3)CCC2 gave an IL-1β inhibition of 73% (human, whole blood ex vivo; 50 mg single dose, 24 h, single ascending dose, with: LPS and ATP).
For COC1OC(C)C(OS(=O)(=O)O)C(OC2OC(C)C(OS(=O)(=O)O)C(OC3OC(C)C(OS(=O)(=O)O)C(OC4OC(C)C(OS(=O)(=O)O)C(OC5OC(C)C(OS(=O)(=O)O)C(OS(=O)(=O)O)C5OS(=O)(=O)O)C4OS(=O)(=O)O)C3OS(=O)(=O)O)C2OS(=O)(=O)O)C1OS(=O)(=O)O (stereo not shown), the prothrombin time was 15.2 ± 0.2 s (human plasma; 128 µg/mL).
The IC50 of Oc1cc2c(cc1O)C(c1ccco1)NCC2 (stereo not shown) is reported as 8.4 µM (ABTS scavenging; 10 min, dark).
CC(C)C[C@H](NC(=O)[C@H](CC(=O)O)NC(=O)CNC(=O)[C@@H](N)CCCNC(=N)N)C(=O)N[C@@H](C)C(=O)N[C@H](C(=O)N[C@@H](CC(C)C)C(=O)N[C@@H](CCCNC(=N)N)C(=O)N[C@@H](CCC(N)=O)C(=O)N[C@@H](CC(C)C)C(=O)N[C@@H](C)C(=O)N[C@@H](CCC(N)=O)C(=O)N[C@@H](CCC(=O)O)C(=O)N[C@@H](CC(=O)O)C(=O)NCC(=O)N[C@H](C(=O)N[C@H](C(=O)NCC(=O)N[C@H](C(=O)N[C@@H](CCCNC(=N)N)C(=O)NCCOCCOCCOCCOCCOCCOCCOCCOCCOCCOCCOCCOCCC(=O)N[C@@H](CS)C(N)=O)C(C)C)C(C)C)C(C)C)[C@@H](C)O — result for “fluorescence signal ratio”: 1.4 and 1.5 and 1.6 (ex vivo NIR imaging; NOD/SCID mice, xenograft, H2009 xenograft; intravenous, 30 µg, 24 h; relative to: liver).
With S=C(S)OC1CC2CC1C1CCCC21 (stereo not shown) the Met-enkephalin concentration was 2430 pM and 6170 pM and 2480 pM and 1170 pM and 467 pM and 3580 pM and 903 pM and 539 pM (LC-MS/MS, item: extracellular Met-enkephalin; mouse striatal brain slices; 500 µM, 20 min, with: 50 mM KCl).
CCCCCCCCCCCCCCCC(=O)OCC(CSC[C@H](N)C(=O)N[C@@H](CO)C(=O)N[C@@H](CCCCN)C(=O)N[C@@H](CCCCN)C(=O)N[C@@H](CCCCN)C(=O)N[C@@H](CCCCN)C(=O)NCCCCCC(=O)N[C@@H](CCCCN)C(=O)N[C@@H](CC(C)C)C(=O)N[C@H](C(=O)N[C@@H](Cc1ccccc1)C(=O)N[C@@H](Cc1ccccc1)C(=O)N[C@@H](Cc1ccc2ccccc2c1)C(=O)O)C(C)C)OC(=O)CCCCCCCCCCCCCCC (stereo partly shown) — result for “amyloid plaque load”: 0.456 and 0.564 and 0.459 and 0.269 and 0.51 (thioflavin S staining; APP/PS1 transgenic mouse, hippocampus; intrahippocampal, 5 d, unit not given; relative to: injected over adjacent side).
Nc1nc2cc(CC[C@H]3C[C@@H](n4ccc5c(N)ncnc54)[C@H](O)[C@@H]3O)ccc2cc1Br has a tumour volume of 708 ± 114 mm3 (NCI-H520 xenograft, mouse; 1.0 mg/kg/day, day 27).
With COC1OC(C)C(OC2OC(C)C(OS(=O)(=O)O)C(OS(=O)(=O)O)C2O)C(OS(=O)(=O)O)C1O (stereo not shown) the prothrombin time was 15.2 ± 0.2 s (human plasma; 128 µg/mL).
With CC(C)(C)NCC(SS(=O)(=O)O)c1ccccc1 (stereo not shown) the liver weight was 4.15 g (Schistosoma mansoni-infected mice; 400 mg/kg single, day 42, perfusion day 56).
COC1OC(C)C(OS(=O)(=O)O)C(OC2OC(C)C(OS(=O)(=O)O)C(OC3OC(C)C(OS(=O)(=O)O)C(OC4OC(C)C(OS(=O)(=O)O)C(OC5OC(C)C(OS(=O)(=O)O)C(OC6OC(C)C(OS(=O)(=O)O)C(OS(=O)(=O)O)C6OS(=O)(=O)O)C5OS(=O)(=O)O)C4OS(=O)(=O)O)C3OS(=O)(=O)O)C2OS(=O)(=O)O)C1OS(=O)(=O)O (stereo not shown) — result for “prothrombin time prolongation”: 1.02 fold (human plasma; 128 µg/mL; relative to: control).
With CC(=O)[O-].O.O.O.O.[Mn+2].[O-]c1ccc(Br)cc1C=NCCN1CCOCC1 the inhibition was 34.9% (DPPH radical scavenging; 160 µM).
COC1OC(C)C(OC2OC(C)C(OS(=O)(=O)O)C(OS(=O)(=O)O)C2OS(=O)(=O)O)C(OS(=O)(=O)O)C1OS(=O)(=O)O (stereo not shown) has a prothrombin time of 15.5 ± 0.7 s (human plasma; 128 µg/mL).
For COc1cc2c(NC3CCN(C(C)C)CC3)cc(N3CCOCC3)nc2cc1OCCCN1CCCC1, “log2 fold change” read -0.0568 (TMT proteomics, item: THY1; 5xFAD mice, hippocampus; dose not given; relative to: wild-type mice).
COC1OC(C)C(OS(=O)(=O)O)C(OC2OC(C)C(OS(=O)(=O)O)C(OC3OC(C)C(OS(=O)(=O)O)C(OC4OC(C)C(OS(=O)(=O)O)C(OC5OC(C)C(OS(=O)(=O)O)C(OC6OC(C)C(OS(=O)(=O)O)C(OC7OC(C)C(OS(=O)(=O)O)C(OC8OC(C)C(OS(=O)(=O)O)C(OS(=O)(=O)O)C8O)C7O)C6O)C5O)C4O)C3O)C2O)C1O (stereo not shown): “prothrombin time prolongation” 0.98 fold (human plasma; 128 µg/mL; relative to: control).
For CN[C@H]1CCN(C(=O)c2c(C)cc(C(F)(F)F)nc2-c2ccnc3cc(CN4C(=O)C5C(C4=O)C5(C)C)sc23)C1 (stereo partly shown), VISTA expression read “no effect” (flow cytometry; splenic CD11b+ myeloid, CD11c+MHC-II+ dendritic cells, B16F10 tumour-bearing mouse; dose not given).
Under “prothrombin time prolongation”, COC1OC(C)C(OC2OC(C)C(OS(=O)(=O)O)C(OC3OC(C)C(OC4OC(C)C(OS(=O)(=O)O)C(OC5OC(C)C(OC6OC(C)C(OS(=O)(=O)O)C(OC7OC(C)C(OC8OC(C)C(OS(=O)(=O)O)C(OC9OC(C)C(OC%10OC(C)C(OS(=O)(=O)O)C(OS(=O)(=O)O)C%10O)C(OS(=O)(=O)O)C9O)C8O)C(OS(=O)(=O)O)C7O)C6O)C(OS(=O)(=O)O)C5O)C4O)C(OS(=O)(=O)O)C3O)C2O)C(OS(=O)(=O)O)C1O (stereo not shown) is recorded as 0.97 fold (human plasma; 128 µg/mL; relative to: control).
With COc1ccc(NC(=O)c2ccc3[nH]c(-c4ccc(N(C)C)cc4)nc3c2)cn1 the tumour volume was 203 mm3 and 148 mm3 and 92.5 mm3 and 78 mm3 (Lewis lung carcinoma, mice, syngeneic graft, subcutaneous; intraperitoneal, 50 mg/kg daily, day 3).
With COC1OC(C)C(OC2OC(C)C(OS(=O)(=O)O)C(OC3OC(C)C(OC4OC(C)C(OS(=O)(=O)O)C(OS(=O)(=O)O)C4OS(=O)(=O)O)C(OS(=O)(=O)O)C3OS(=O)(=O)O)C2OS(=O)(=O)O)C(OS(=O)(=O)O)C1OS(=O)(=O)O (stereo not shown) the prothrombin time was 15 ± 0.2 s (human plasma; 128 µg/mL).
With C[C@@H](Nc1c(-c2c(F)cc(C#N)cc2F)c(Cl)nc2ncnn12)C(C)(C)C the reduction was roughly 50% (immunoblot, item: insoluble total tau; male PS19 tau transgenic mice, brain; intraperitoneal, 3 mg/kg twice weekly, 3 months; relative to: vehicle).
COC1OC(C)C(OS(=O)(=O)O)C(OC2OC(C)C(OS(=O)(=O)O)C(OC3OC(C)C(OS(=O)(=O)O)C(OS(=O)(=O)O)C3OS(=O)(=O)O)C2OS(=O)(=O)O)C1OS(=O)(=O)O (stereo not shown) — result for “prothrombin time prolongation”: 1.01 fold (human plasma; 128 µg/mL; relative to: control).
For COc1cc(/C=C2\CN(C)C/C(=C\c3cc(Cl)c(O)c(OC)c3)C2=O)cc(Cl)c1O, the IC50 was 197 µg/mL (ABTS scavenging; 20 min).

Excerpt of the above:
For CCCCNC(CCCC)CSS(=O)(=O)O (stereo not shown), “liver weight decrease” read 17% (Swiss Webster mice, Schistosoma mansoni infected; 100 mg/kg; relative to: vehicle control).
CN1CCC[C@]1(C)/C=C/S(=O)(=O)NC(=O)Nc1c2c(cc3c1CCC3)CCC2 gave an IL-1β inhibition of 73% (human, whole blood ex vivo; 50 mg single dose, 24 h, single ascending dose, with: LPS and ATP).
With CC(=O)[O-].O.O.O.O.[Mn+2].[O-]c1ccc(Br)cc1C=NCCN1CCOCC1 the inhibition was 34.9% (DPPH radical scavenging; 160 µM).
With COc1ccc(NC(=O)c2ccc3[nH]c(-c4ccc(N(C)C)cc4)nc3c2)cn1 the tumour volume was 203 mm3 and 148 mm3 and 92.5 mm3 and 78 mm3 (Lewis lung carcinoma, mice, syngeneic graft, subcutaneous; intraperitoneal, 50 mg/kg daily, day 3).
